Measured values pooled from the literature.
Parts stem from different laboratories: compare values within a part only. Positions count from the first letter of the parent shown.

Study 1 — method: DHFR PCA, deep sequencing; matrix: yeast; added: (+)-ABA 0 µM; relative to: wild-type fitted maximum; direction: higher = stronger binding; endpoint: relative binding score
Target: ABI1, truncated, D143A, DHFR fusion (Arabidopsis thaliana)
Notes: methotrexate growth selection, single substitutions
Starting sequence: PYL1, truncated, DHFR fusion (Arabidopsis thaliana); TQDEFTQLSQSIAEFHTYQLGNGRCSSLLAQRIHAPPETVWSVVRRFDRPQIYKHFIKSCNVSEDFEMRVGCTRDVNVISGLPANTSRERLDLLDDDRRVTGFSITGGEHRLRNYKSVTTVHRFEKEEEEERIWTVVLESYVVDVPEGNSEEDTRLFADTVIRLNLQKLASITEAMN
Q167D: 2.48%
S26F: 1.76%
P146V: 26.8%
T39G: 2.22%
M176H: 7.47%
L29T: 1.89%
L166T: 4.41%
E139Q: 23.4%

Study 2 — target: CCNB1, cyclin fold, Cln2 fusion (human); method: yeast growth competition, sequencing; matrix: yeast; notes: strong parent motif; relative to: not given; direction: higher = stronger binding; endpoint: normalised enrichment score; starting sequence: viral docking peptide; YKVKRRLVFGADD
YKVKRRDVFGADD [L7D]: 0.0507
YKVKRRLVFSADD [G10S]: 3.7
YKQKRRLVFGADD [V3Q]: 0.641
YKVKRRSVFGADD [L7S]: 0.582
YKVKRRLVLGADD [F9L]: 1.01
YKVKRRLVFGDDD [A11D]: 5
YKVKRRLVFGAHD [D12H]: 2.24
YEVKRRLVFGADD [K2E]: 4.71
YKVKRRHVFGADD [L7H]: 0.277
YKVKRRLVFGCDD [A11C]: 3.7
YKVSRRLVFGADD [K4S]: 3.73
YKVKRRIVFGADD [L7I]: 0.919
YKVKRELVFGADD [R6E]: 1.43
YKVKGRLVFGADD [R5G]: 0.333
YKDKRRLVFGADD [V3D]: 0.172
YKVKRRLVPGADD [F9P]: 0.374
YKVKRRLVFIADD [G10I]: 3.25
YKVKRRLVMGADD [F9M]: 0.55

Study 3 — method: RNA Bind-n-Seq; form: RNA; matrix: in vitro; concentration: 365 nM; relative to: no-protein control; direction: higher = stronger binding; endpoint: RBNS enrichment (R)
Target: RNA binding protein fox-1 homolog 2, RRM domain, GST-SBP tag (RBFOX2, Homo sapiens, UniProt O43251-10, residues 100-194)
Notes: natural RNA segment, single round, ends assumed
Constant ends, left off below: GGGAGUUCUACAGUCCGACGAUC … UGGAAUUCUCGGGUGCCAA
AAAAAAAAAGGAAUAGAAACAGUUUCAACCAGAUUGUCCUAUUCCCCCUGUUCCAUUCCCCUCUUCUUCCUUCUAUCUCCUUCCCCGGCAAAAACCAAACAAACUGGCAG: 0.675
CGAUAAGAGUAGUAGGCACCACAUGUAAGUCAGGGUCAAAUACUUGGAUAUUUAUCUGCAUAUGCAAAUUAAAAUAAUUAGAAACUUUCUACCUAGUACGUCAUGUUGUA: 0.483
ACCUGCUUCUGUGACUUCGUUCUUUUUGUUUUCAAGGGGUGAAAACCCCCUGUCAGAAGGUACCGUCGCAUAUCCAUGUGAAGCAGACGACUCCCUGCUUGCCGCACACA: 0.633
CUGUCCGCAGAUCCUGACUUUUCCAAAGUGCCUUAAAAGAAAUCAGACAAAUGCCCUGAGUGGUAACUUCUGUGUUAUUUUACUCUUAAAACCAAACUCUACCUUUUCUU: 0.403
UCCUCUUCCUCCUGCUCUGGGUUGGCAUCUACGUUAAGUCUCCAAGGGUACCCACCAGGCAGCUCACCAAGUCUCUGCUUUUGUAAAUUAAUUUUUUACCAUUGCUACGU: 0.587
CUUUGGCAAUGCAAAAUGACUCCUGACUGUUCCAAAUACUGAAAAGAAGUCUGCCUCUGAGUUACAGCUCUUUCUCAACAAGUACAGAGUUUGAGGCUUGCAGUUGCAAC: 0.646
AAAUAUUCUCUUCAAAUGCCACCUUCUCAAUUUAUAACUAAAAUAGUGUUAUCUGACUAAUUCCUCUGAAUUUUGAUGUAAGAUCUAUAUAGGCCCCCAAAAUGAUCGUA: 0.863
GCCCUGCAGCCACAGUGUUCUGUUGGAGAAACUUGGGGAAGUGUUUUCUGAACCAGUUCUUUUUCUUGGGGUAGAGCGUGAAAUCCAGACCUGUUUUUGAAAGGACAGCA: 0.438

Study 4 — target: tungstate, free oxyanion; method: microfluidic competitive inhibition; matrix: in vitro, cell-free expressed; concentration: not given; direction: lower = stronger binding; endpoint: oxyanion analog dissociation constant
Notes: derived from inhibition constants, unchanged parent 2230 nM
Starting sequence: PafA, mature enzyme, eGFP fusion (Elizabethkingia meningoseptica, UniProt Q9KJX5); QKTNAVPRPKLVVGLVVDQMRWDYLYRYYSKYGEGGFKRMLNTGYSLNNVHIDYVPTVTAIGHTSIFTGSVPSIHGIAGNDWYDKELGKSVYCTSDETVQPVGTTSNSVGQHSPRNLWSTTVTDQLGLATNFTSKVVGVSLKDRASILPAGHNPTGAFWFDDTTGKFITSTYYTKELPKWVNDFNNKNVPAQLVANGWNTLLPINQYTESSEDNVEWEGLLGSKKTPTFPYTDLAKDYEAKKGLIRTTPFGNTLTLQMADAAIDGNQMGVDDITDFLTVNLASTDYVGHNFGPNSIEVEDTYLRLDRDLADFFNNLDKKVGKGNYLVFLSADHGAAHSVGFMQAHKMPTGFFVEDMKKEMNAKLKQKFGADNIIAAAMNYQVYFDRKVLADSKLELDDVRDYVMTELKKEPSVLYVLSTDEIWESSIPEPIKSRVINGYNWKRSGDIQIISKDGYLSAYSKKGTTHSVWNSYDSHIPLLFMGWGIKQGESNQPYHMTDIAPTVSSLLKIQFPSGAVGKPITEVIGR
A150V: 2030 nM
K357V: 2420 nM
N182V: 2300 nM

Single results of other studies — method: cross-linking MS; notes: hits only; NCKAP1: NCKAP1 (Homo sapiens, UniProt Q9Y2A7)
ACAD9 (Homo sapiens, UniProt Q9H845)  interaction screen (NDUFAF1 (Homo sapiens, UniProt Q9Y375)): cross-linked
FLOT1 (Homo sapiens, UniProt O75955)  interaction screen (EP400 (Homo sapiens, UniProt Q96L91)): cross-linked
CYFIP1 (Homo sapiens, UniProt Q7L576)  interaction screen (NCKAP1): cross-linked
CYFIP2 (Homo sapiens, UniProt Q96F07)  interaction screen (NCKAP1): cross-linked

Excerpt of the above (study 2):
YKVKRRLVFGAHD [D12H]: 2.24
YEVKRRLVFGADD [K2E]: 4.71
YKVKRRHVFGADD [L7H]: 0.277
YKVKRRLVFGCDD [A11C]: 3.7
YKVSRRLVFGADD [K4S]: 3.73
YKVKRRIVFGADD [L7I]: 0.919
